# Published values pooled from the literature.
# Protocols differ between the studies behind these lines. Numbers after ± are the reported error.
# T1: tetracycline RNA aptamer A55G; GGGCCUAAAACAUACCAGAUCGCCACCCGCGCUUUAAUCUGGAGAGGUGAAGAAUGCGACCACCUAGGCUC
Compound,target,test,system,conditions,quantity,result
CCCCCCCC(=O)Nc1ccc(OC)nc1C,"CES1 (Homo sapiens, UniProt P23141)",substrate,,"50 µM, pH 8, 37 °C, enzyme purity 25%",specific activity,440 pmol/min/µg
O=C1NC(=O)/C(=C\c2ccc(-c3ccc(C(F)(F)F)cc3)cc2)S1,"CD38 (Homo sapiens, UniProt P28907)","enzyme activity, inhibitor, fluorescence",,50 µM,remaining activity,49.4%
CNc1ccccc1C(=O)O[C@H]1C[C@H](n2cnc3c(N)ncnc32)O[C@@H]1COP(=O)(O)OP(=O)(O)O,"Unconventional myosin-Va (Gallus gallus, UniProt Q02440, D297C/G292C/I296C/S293C/V295G)",stopped-flow FRET,,"25 °C, with: EDTA 4 mM",association rate constant,1.21e+07 ± 1.61e+06 M⁻¹ s⁻¹
CC(=O)NCCN(CCC(=O)NCCN(CCC(=O)NCCN(CCC(=O)NCCC(N)=O)C(=O)[C@@H](N)Cc1ccccc1)C(=O)[C@@H](N)Cc1ccccc1)C(=O)[C@@H](N)CCCNC(=N)N,HIV-1 TAR RNA,,,25 °C,binding free energy ΔG°,-8.77 ± 0.287 kcal/mol
FC(F)(F)c1csc(Nc2ccc(Cl)c(Cl)c2)n1,"Kinesin-like protein KIF15 (Homo sapiens, UniProt Q9NS87)",microtubule-dependent ATPase activity,,"20 µM, with: ATP 2 mM, microtubules",kcat,10.8 ± 2 s^–1
NC(=O)C1CCCCNC(=O)C(CCCNC(=O)c2cnccn2)NC(=O)C(Cc2ccco2)NC(=O)C(CC2CC2)NC(=O)C=CC(=O)N1 (stereo not drawn),"MAPK14 (Homo sapiens, UniProt Q16539)",DNA-templated library selection,,one selection round,enrichment factor,0.99
C=CC(C)(C)OCC1OC(OC2C3=C(C(C)COC(C)=O)CC(O)C3(C)C=C3C(COC)CCC3C(C)C2O)C(O)C(OC(C)=O)C1O (stereo not drawn),"14-3-3 protein sigma, with TASK3 (SFN, Homo sapiens, UniProt P31947)","protein-protein interaction, stabilizer, fluorescence polarization",,with: FITC-labelled TASK3 peptide,cooperativity factor,1000
Cc1cc(O)c2c(c1)C(=O)c1cc3oc(=O)cc(-c4ccccc4)c3c(O)c1C2=O,mushroom tyrosinase,enzyme activity,,"25 µg/mL, with: L-DOPA",inhibition,13.2 ± 0.14%
CN1C(=O)[C@@H](Cc2ccc(O)cc2)NC(=O)CNC(=O)[C@H](Cc2ccc3ccccc3c2)NC(=O)[C@H](CCCNC(=N)N)NC(=O)[C@H]1CCCNC(=O)c1ccc(CNC(=O)CN2CCN(CC(=O)O)CCN(CC(=O)O)CCN(CC(=O)O)CC2)cc1 [gallium-68 labelled],"CXCR4 (Homo sapiens, UniProt P61073)",,Daudi,"concentration not given, with: 0.2 pmol tracer, 0.2 nmol DOTA-pentixafor block",non-specific cell binding,0.3 ± 0.1%
CCCCCCCCCCCCCCCC(=O)OC[C@H](CSC[C@H](NC(=O)COCC(=O)NCCCOCCOCCOCCCNC(=O)CN(CCN(CCN(CC(=O)O)CC(=O)O)CC(=O)O)CC(=O)O)C(=O)NCC(=O)N[C@H](CO)C(=O)NCCCOCCOCCOCCCNC(=O)COCC(N)=O)OC(=O)CCCCCCCCCCCCCCC,"TLR2 (Homo sapiens, UniProt O60603)",europium TRF saturation binding,Capan-1,,Bmax,951000 AFU
CC(=O)NCCN(CC(=O)NCCN(CC(=O)NCCN(CC(=O)NCCC(N)=O)C(=O)C[C@@H](N)Cc1ccccc1)C(=O)C[C@@H](N)CCCNC(=N)N)C(=O)C[C@@H](N)Cc1ccccc1,HIV-1 TAR RNA,,,concentration not given,heat capacity change ΔCp,-1.66 ± 0.16 kJ/mol/K
CN(C)[C@@H]1C(=O)C(C(N)=O)=C(O)[C@@]2(O)C(=O)C3=C(O)c4c(O)cccc4[C@@](C)(O)[C@H]3C[C@@H]12,"T1, tetracycline RNA aptamer A55G",ITC,,"pH 7.5, 25 °C, MgCl2 10 mM",Kd,7.19 nM
